Published values gathered from unrelated publications.
Lines come from different studies, so protocols differ. Values joined by “and” are separate records of one study, mostly repeats; a detail may differ. ± marks the error that the study gave.

| SMILES | assay | test system | setting | measurement | result |
| --- | --- | --- | --- | --- | --- |
| CC(C)NCCCC[C@@H]1NC(=O)[C@H](Cc2ccc(O)cc2)NC(=O)[C@H](Cc2ccccc2)NC(=O)CC[C@H](C(=O)N[C@@H](CCCCNC(C)C)C(=O)N[C@@H](CCCCNC(=O)[C@H](CCC(=O)O)NC(=O)[C@H](CCC(=O)O)NC(=O)[C@H](CCC(=O)O)NC(=O)CN2CCN(CC(=O)O)CCN(CC(=O)O)CCN(CC(=O)O)CC2)C(N)=O)NC(=O)CNC(=O)[C@H](Cc2ccc3ccccc3c2)NC(=O)[C@@H](CCCNC(=N)N)NC1=O [gallium-68 labelled] | ex vivo biodistribution | male mice, Granta-519 xenograft, adrenals | intravenous, 1 h post-injection | tissue uptake | 0.2 %ID/g |
| CSc1cc(C)nc(SC)c1NC(=O)CN1CCN(CCSc2nc3ccccc3[nH]2)CC1.Cl |  | female Crl:CD1 (ICR) mice, olfactory bulb | intranasal, 10 µL solution daily, 120 min, 7 days dosing | tissue concentration | 1.5 ng/g and 3.9 ng/g |
| NC/C(=C\F)COc1cccc(Cn2c(=S)[nH]c(=O)c3[nH]cnc32)c1 |  | C57BL/6J mice, plasma | oral, 15 mg/kg single, 2 h | tissue concentration | 159 ng/mL |
| C[C@H](NC(=O)[C@H](CCC(N)=O)NC(=O)[C@H](C)NC(=O)[C@H](CCCNC(=N)N)NC(=O)[C@H](CCC(N)=O)NC(=O)[C@H](C)NC(=O)[C@H](CCCNC(=N)N)NC(=O)[C@H](CCC(N)=O)NC(=O)[C@H](C)NC(=O)[C@H](CCC(N)=O)NC(=O)[C@H](CCCNC(=N)N)NC(=O)[C@H](C)NC(=O)[C@H](CCC(N)=O)NC(=O)[C@H](CCCNC(=N)N)NC(=O)[C@H](C)NC(=O)[C@H](CCC(N)=O)NC(=O)[C@H](C)NC(=O)[C@H](CCCNC(=N)N)NC(=O)[C@H](CCC(N)=O)NC(=O)[C@H](C)NC(=O)[C@H](CCCNC(=N)N)NC(=O)[C@H](CO)NC(=O)[C@H](Cc1ccc(O)c(I)c1)NC(=O)CNC(=O)CNC(=O)CN)C(=O)N[C@@H](CCCNC(=N)N)C(=O)N[C@@H](CCC(N)=O)C(=O)N[C@@H](C)C(=O)N[C@@H](CCCNC(=N)N)C(=O)N[C@@H](CCC(N)=O)C(=O)O [iodine-125 labelled] |  | H2/IL-6 transgenic BALB/c mice, both sexes, liver | intravenous, 4 h | tissue uptake | 8 %ID/g |
| O=C[C@H]([18F])[C@@H](O)[C@H](O)[C@H](O)CO |  | Kunming mice, turpentine inflammation, normal muscle | intravenous, 0.74 MBq, 60 min | tissue uptake | 0.95 ± 0.07 %ID/g |
| OCc1nc2ccc(NCc3ccc(C(F)(F)F)cc3)cc2[nH]1 |  | Balb/c mice, male, lungs | oral, 10 mg/kg, 48 h | tissue concentration | not detected |
| COCCCOc1cc2c(cc1OC)-c1cc(=O)c(C(=O)O)cn1[C@H](C(C)C)C2 |  | CD-1 mice, spinal cord | oral, 10 mg/kg | tissue concentration | > 500 ng/g and < 1000 ng/g |
| N=C(N)NCCC[C@H](NCC(=O)[C@@H](O)[C@H](O)[C@H](O)CO)C(=O)O | UPLC-MS/MS | C57BL/6J mice, cerebellum | intraperitoneal, dose not given, 15 min | tissue concentration | 6 ± 2 pmol/mg tissue |

For quick reference, copied from above:
| SMILES | assay | test system | setting | measurement | result |
| --- | --- | --- | --- | --- | --- |
| N=C(N)NCCC[C@H](NCC(=O)[C@@H](O)[C@H](O)[C@H](O)CO)C(=O)O | UPLC-MS/MS | C57BL/6J mice, cerebellum | intraperitoneal, dose not given, 15 min | tissue concentration | 6 ± 2 pmol/mg tissue |
